Published values gathered from unrelated publications.
Each numbered part is a random draw from the data of one study; scales do not carry over between parts. Substitutions count along the parent as printed.

Set 1
Target: ABI1, truncated, D143A, DHFR fusion (Arabidopsis thaliana)
Technique: DHFR PCA, deep sequencing
Sample: yeast
Setting: methotrexate growth selection, single substitutions
Together with: (+)-ABA 0.11 µM
Reference: wild-type fitted maximum
Reading: higher = stronger binding
Starting sequence: PYL1, truncated, DHFR fusion (Arabidopsis thaliana); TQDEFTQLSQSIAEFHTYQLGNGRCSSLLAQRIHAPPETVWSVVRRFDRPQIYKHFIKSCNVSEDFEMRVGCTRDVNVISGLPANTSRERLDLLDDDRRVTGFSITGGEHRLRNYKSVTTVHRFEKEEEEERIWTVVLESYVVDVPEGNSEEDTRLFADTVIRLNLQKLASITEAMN
| Substitution | relative binding score |
| --- | --- |
| T101R | -8.94% |
| T160P | -4.06% |
| P83K | 20.2% |
| G107E | 16.8% |
| N149P | 2.85% |
| E147H | 16.3% |
| P50Y | 2.11% |
| R90K | 6.07% |
| L166H | 12.6% |
| R155E | 4.44% |
| L8H | 1.07% |
| T120I | -4.94% |
| L20G | 36.9% |

Set 2
Target: RNA binding protein fox-1 homolog 2, RRM domain, GST-SBP tag (RBFOX2, Homo sapiens, UniProt O43251-10, residues 100-194)
Technique: RNA Bind-n-Seq
Molecule type: RNA
Sample: in vitro
Tested at: 365 nM
Setting: natural RNA segment, single round, ends assumed
Reference: no-protein control
Reading: higher = stronger binding
Shared flanks, not repeated: GGGAGUUCUACAGUCCGACGAUC … UGGAAUUCUCGGGUGCCAA
Construct (chain): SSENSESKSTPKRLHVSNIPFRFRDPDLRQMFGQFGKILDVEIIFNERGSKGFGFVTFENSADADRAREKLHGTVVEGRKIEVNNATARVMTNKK
| Oligonucleotide | RBNS enrichment (R) |
| --- | --- |
| AAUUUCCACUUCACCAGCAAUAACAAUCAGAGGAGACUUGGCCCUCAGUCCUUGUAUUUCUCUUUUUCACUCUCUCUUCCACCCCAAGAUGGAAUCUUGGGGACAGGAGG | 0.549 |
| CCUUAUGCACGGAACUGUUUCUGAGUGCCAAGCACAGAAAGCCGCUAAAUAAAAUCUUUGCAAUUGUUUUCUGUGUGUUUGUUCAUAUAGAAAAAUUAAGUAUUGUUUUC | 0.649 |
| UCUGCAUCAGUUGCUUCUAUAGAGCAUCAGCCCUCAUGUUUCAUUGUCUUAAUGUCGGGGAGCAGCCUGGUGUCCUGCCCCAGGUGUCCGCAUUUUUGCAUGGUAAGGAA | 4.46 |
| CUUAUUUUUUUAAAUAAGUUUUUAGGUCCUGACACUGACAUCAAAUACAUGCACACCAGAAAGGCAUUUCCACCACCGUCCCCACUCAUUAGCGUCCAGAGUGCCUUUCU | 0.46 |
| CAUCCCCGGGAGUGCUCGUGGGAAGUGGCCUCCACAGAAGGUAGUCAUCUUCAUCCUCUAGGACAUUUAAAACAUGCUCAGUCCCUGGACCCAGAUGAUGGCUUCUCAGG | 0.298 |
| GCUCAAAUCUGUUGUGUUUCUGAGUCUAGGGUCUGUACACUUGUUUAUAAUAAAUGCAAUCGUUUGGGCUGCUGCCCCCUUUCUUCCUGGCCUCGGCUGCUGGAAUUGGA | 0.678 |
| CUGGGUGAUGCUUACGGGAAGGAGAUUGGUAGAUGCAGUCUUUUUUUCCCCCUUAGCACUUGUAUGAGUGAGGAGAAAGUUAGGUAAAGAUUGAAACUAUAAAUUACAGU | 2.67 |
| AGCCCCCAGGCCAGGUGAGGUCCACCGGCCCCUGGCAGCACAGCCCAGGGCCUGCAUGGGGGCACCGGGCUCCAUGCCUCUGGAGGCCUCUGGCCCUCGGUGGCUGCACA | 0.661 |

Set 3
Target: Interferon regulatory factor 5, full length, phosphomimetic (IRF5, Homo sapiens, UniProt Q13568-2, residues 1-514, K96S/S451D/S453D/S456D/S462D)
Technique: protein-binding microarray
Molecule type: double-stranded DNA, one strand shown
Sample: in vitro
Tested at: 250 nM
Setting: 60-bp whole probe
Together with: salmon DNA 0.4 mg/ml
Reference: random background probes
Reading: higher = stronger binding
Shared flanks, not repeated: GCCTAGCAC … GTCTTGATTCGCTTGACGCTGCTG
| Oligonucleotide | log fluorescence [z-score] |
| --- | --- |
| GACGATTTCAGTCTTGAGACGTGCTAG | 1.28 |
| TTAGTTATCCTTTTCCTTTAGTGCTAG | 1.1 |
| TCTCTGCTACCCTTTGAAAGTGTGCTA | 0.52 |
| TTAGATTCCTGTTTCGATTAGTGCTAG | 8.29 |
| GACGATATCGGGTTTCGCGACGTGCTA | 2.09 |
| TCAGCTCTAGGTTCTCTGAAGGTGCTA | -0.438 |
| TTTGGTTTCCTACTGCTTTAGTGCTAG | 1.09 |
| TTAGGTTTCGGGATTCGGTTAGTGCTA | 7.58 |

Other studies, line by line
| Molecule | target | assay | system | conditions | how to read | endpoint | value |
| --- | --- | --- | --- | --- | --- | --- | --- |
| PhoQ, residues 284 288 289 292 302 303 SSTMSV | PhoP, residues 12 14 15 18 19 NHFRA (Escherichia coli, UniProt P23836) | Sort-seq, item: YFP reporter | E. coli | PhoQ-PhoP variant library, together with: 10 µM Mg2+ | reference: high Mg2+ state, higher = stronger signaling | fold induction | 2.52 |
